Measured values of several laboratories.
Protocols differ between the studies behind these lines. Values joined by “and” are separate records of one study, mostly repeats; a detail may differ.

For `COc1ccc2c3c1O[C@H]1[C@H](O)C=C[C@@]4(O)[C@@H](C2)N(C)CC[C@]314`, “Δlog K, isomerization effect” read -0.01 log units (pH-potentiometric titration; relative to: O-methyl derivative).
With `NC[C@]1(CC(=O)O)CC[C@@H]([18F])CC1` the K1 was 0.0021 mL/min/cm3 (PET, one-tissue model; rhesus monkey, occipital gyrus; intravenous).
For `C[C@@H](N1CN([C@H]2c3ccccc3CSc3ccccc32)n2cc(C(=O)O)c(=O)c(O)c2C1=O)C(F)(F)F`, the CC50 was over 10 µM (dog cells).
`COc1ccc(-n2cc(C(=O)N3C[C@]4(OC(=O)c5ccccc5NC(C)=O)CC[C@H](OC)[C@@]56[C@@H]4C[C@@H]([C@@H]35)[C@@]3(O)C[C@H](OC)[C@H]4C[C@@H]6[C@]3(O)[C@H]4OC)nn2)cc1` has a clearance of 564 mL/min/kg (rat Sprague-Dawley, plasma; intravenous, 2 mg/kg).
`COc1cc2c(cc1NC(=O)c1cncn1C)C[C@H]1[C@H]3CCCC[C@@]23CCN1C` has a plasma concentration of 12000 ng/mL and 10200 ng/mL and 12900 ng/mL and 14400 ng/mL (C57BL/6 mice, plasma; oral, 50 µg/g, 30 min).
With `COc1ccc2c3c1O[C@H]1[C@@H](O)C=C[C@H]4[C@@H](C2)N(CCc2ccccc2)CC[C@@]341` the logD was 2.32 (octanol/phosphate buffer; 1 h, pH 7.45, ionic strength 0.15 M).
The CC50 of `O=C(O)c1cn2c(c(O)c1=O)C(=O)N(Cc1ccc(F)cc1F)C[C@@H]2C(c1ccccc1)c1ccccc1` is reported as over 10 µM (bovine cells).
`COc1ccc2c3c1O[C@H]1[C@H](O)CC[C@H]4[C@@H](C2)N(C)CC[C@@]341`: “Δlog K, isomerization effect” -0.09 log units (pH-potentiometric titration; relative to: O-methyl derivative).
For `CC(C)N1CN(C2c3ccccc3CCc3ccccc32)n2cc(C(=O)O)c(=O)c(O)c2C1=O`, the CC50 was 4.3 µM (hamster cells).

Some of these lines once more:
The CC50 of `O=C(O)c1cn2c(c(O)c1=O)C(=O)N(Cc1ccc(F)cc1F)C[C@@H]2C(c1ccccc1)c1ccccc1` is reported as over 10 µM (bovine cells).
